Measurements pooled from the literature.
Parts stem from different laboratories: compare values within a part only. Values joined by “and” are separate records of one study, mostly repeats; a detail may differ.

Series 1
SMILES: CC(C)n1cnc(-c2ccc(F)cc2)c1-c1ncc(C(=O)Nc2ccc(N3CCN(C)CC3)cc2)[nH]1
Method: phase 2a trial
Host: patients with idiopathic pulmonary fibrosis
| conditions | patients with TEAE |
| --- | --- |
| dose not given, free thyroxine decreased, grade 5, all arms | 0% |
| 60 mg once daily, endocrine disorders SOC, grade 1 | 0% |
| dose not given, free thyroxine decreased, grade 2, all arms | 0% |

Series 2
Structure (SMILES): CCOc1ccc(Nc2c3c(nc4ccccc24)CCC3)cc1
Organism: Leishmania donovani
Read-out: parasite killing
Strain: DD8
| system | conditions | inhibition |
| --- | --- | --- |
| intracellular amastigotes | 0.4 µM, 96 h | 28% and 14% and 16% |
| promastigotes | 3.33 µM, 48 h | 62% and 69% and 61% |
| promastigotes | 1.66 µM, 96 h | 48% and 42% and 40% |

Series 3
Cell line: normal organoid sample F
Method: CellTiter-Glo
Host: human
Sample: normal-adjacent epithelium
Concentration: 1 µM
Reference: DMSO
| Structure (SMILES) | viability |
| --- | --- |
| O=C(Nc1cnc(Oc2ccc(F)cc2)nc1)N1CCc2ncccc2[C@@H]1c1ccc(F)cc1 | 59.6% and 157% |
| Cn1cc(Cl)c2c(Oc3c(F)cc(Nc4cc(Cl)nc(N)n4)cc3F)ccnc21 | 112% and 108% |
| Cc1cnc(-c2cc(Cl)ccc2F)cc1-n1c(=O)n(CC(N)=O)c2cnccc21 | 120% and 183% |
| c1ccc(N2CCN(Cc3nc4ccccc4[nH]3)CC2)nc1 | 114% and 107% |
| CC(=O)Nc1c(C(C)=O)c(=O)n(C)c2nc(-c3ccc(Cl)cc3Cl)c(-c3ccc(Cl)cc3)cc12 | 107% and 115% |
| CO[C@@H](C)c1c(Nc2ccc([C@@H](N(C)C(=O)C3CCS(=O)(=O)CC3)C(F)(F)F)cc2)cnc2cc(Cl)nn12 | 155% and 139% |
| O=C1NC(c2ccccn2)Sc2ccccc21 (stereo not drawn) | 99.7% and 110% |
| CCNC(=O)c1cc2c(N3CCOC[C@@H]3C)ccnc2[nH]1 | 115% and 106% |
| CC(=O)N1CCC(c2ccc(C(=O)NC(=N)N)cc2C(F)(F)F)CC1 | 113% and 108% |
| Cc1c(Oc2ccc(F)cc2)c(OC(C)C)nn1-c1ccc(C2CC2)cn1 | 178% and 142% |
| Cc1ccc2[nH]c(CNCCCc3ccncc3)cc(=O)c2c1 | 129% and 134% |
| CN([C@@H]1CCc2c(CC(=O)O)c3ccccc3n2C1)S(=O)(=O)c1ccc(F)cc1 | 104% and 108% |

Other studies, line by line
| SMILES | target or system | assay | system | conditions | how to read | endpoint | result |
| --- | --- | --- | --- | --- | --- | --- | --- |
| O=C(COc1ccc(Cl)cc1)NC1CCC(NC(=O)COc2ccc(Cl)cc2)CC1 (stereo not drawn) | HEK293T ATF4-firefly luciferase reporter | integrated stress response, measured: ATF4 | – | concentration not given | reference: DMSO | reporter signal | 61.8% and 76.4% and 68.3% and 69.8% and 60.8% and 65.6% and 72.6% |
| CN(C)CC[C@@H](c1ccc(Br)cc1)c1ccccn1.O=C(O)/C=C\C(=O)O (single isomer, unassigned) | Sarcocystis neurona | parasite growth | – | concentration not given, first screen | reference: untreated | log2 fold change | 0.12 |
| Nc1nc(OCc2cc(Br)cs2)c2[nH]cnc2n1 | mouse MPNST tumor cells | high-content immunofluorescence imaging, measured: nuclear SOX9 | – | 10 µM, 12 h, mean of 2 replicates | reference: DMSO control, higher = more nuclear SOX9 | nuclear SOX9 intensity | 105 % of DMSO |
| CC(N/C(=N\C#N)Nc1ccncc1)C(C)(C)C.O (stereo not drawn) | Sarcocystis neurona | parasite growth | – | concentration not given, first screen | reference: untreated | log2 fold change | 0.0333 |
| COC(=O)C1(C(=O)OC)C(CC(=O)c2ccc(C)cc2)c2cc(N(C)C)ccc2C(c2ccccc2)N1S(=O)(=O)c1ccc(C)cc1 (stereo not drawn) | – | – | human, microsomes or S9 | 2 µM, 0.5 h | – | remaining compound | 23.8% |
| CCCCCCCCCCCCCCCc1cccc(OCC(=O)NCCO)c1 | mouse MPNST tumor cells | high-content immunofluorescence imaging, measured: nuclear SOX9 | – | 10 µM, 12 h, mean of 2 replicates | reference: DMSO control, higher = more nuclear SOX9 | nuclear SOX9 intensity | 96 % of DMSO |

Excerpt of the above (series 1):
| conditions | patients with TEAE |
| --- | --- |
| dose not given, free thyroxine decreased, grade 5, all arms | 0% |
| 60 mg once daily, endocrine disorders SOC, grade 1 | 0% |
| dose not given, free thyroxine decreased, grade 2, all arms | 0% |
